Experimental data from different studies.
UniProt P16152, sequence (whole entry, looked up): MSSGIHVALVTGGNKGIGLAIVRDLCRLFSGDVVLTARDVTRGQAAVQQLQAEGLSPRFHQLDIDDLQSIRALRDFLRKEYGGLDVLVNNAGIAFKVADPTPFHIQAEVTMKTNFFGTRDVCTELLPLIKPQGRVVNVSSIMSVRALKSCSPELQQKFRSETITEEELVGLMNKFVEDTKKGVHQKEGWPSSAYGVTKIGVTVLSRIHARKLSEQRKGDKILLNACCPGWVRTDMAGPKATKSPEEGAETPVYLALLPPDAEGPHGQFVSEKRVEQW

`C[C@]1(CO)Cc2ncn(-c3ccc(C#N)c(Cl)c3)c2C(=O)O1` gave a severe TEAEs of 2.1% (healthy human; all doses, European single ascending dose).
`CC(C)n1c(C2CCNCC2)nc2c([N+](=O)[O-])c(Br)c(Br)cc21` — result for “AE leading to discontinuation”: 6% (patients with AML; 125 mg, fungal pneumonia).
For `C[C@H]1CN(c2n[nH]c3nc(N[C@H]4CC[C@H](NS(=O)(=O)CCC(F)(F)F)CC4)ncc23)CCO1`, the IC50 was ≥ 20 µM (CBR1 (Homo sapiens, UniProt P16152); biochemical).
`C[C@H]1CN(C(=O)CC#N)[C@]12CCN(c1ncnc3[nH]ccc13)C2` — result for “exposure multiple over human”: 208 /204 (dog, male; oral, 0.6 mg/kg, 9 months, repeated dose toxicity).
`CO[C@H]1C[C@@H]2CC[C@@H](C)[C@@](O)(O2)C(=O)C(=O)N2CCCC[C@H]2C(=O)O[C@H]([C@H](C)C[C@@H]2CC[C@@H](OC(=O)NCCOCCOCCOCCOCCOCCOCCOCCOCCC(=O)N3CCc4cc(Cn5nc(-c6ccc7oc(N)nc7c6)c6c(N)ncnc65)ccc4C3)[C@H](OC)C2)C[C@@H](O)[C@H](C)/C=C(\C)[C@@H](O)[C@@H](OC)C(=O)[C@H](C)C[C@H](C)/C=C/C=C/C=C/1C`: “any TRAE incidence” 37.5% (phase 1 dose escalation; advanced solid tumour patients; intravenous, 10 mg weekly, grade ≥3).
Under “grade 1 or 2 hand-foot syndrome”, `COc1cc2c(Oc3ccc4[nH]c(C)cc4c3F)ccnc2cc1OCC1(N)CC1` is recorded as 0% (paediatric recurrent refractory sarcoma; 8 mg).
For `C[C@H]1COCCN1c1nc(NCc2cccnc2C(F)(F)F)c2cccnc2n1`, “heart rate change” read -35.7% (anaesthetized rat; intravenous, 30 mg/kg; reference: control).
Under “blood cell fraction”, `O=S(=O)(Nc1ccccc1)c1ccc(NC(=S)Nc2ccccc2)cc1` is recorded as 0.22% (item: BA%; male mouse, blood; oral, 5 mg/kg daily, 14 days).
`Cn1ncc(-c2nc(N[C@H]3CC[C@H](N)CC3)ncc2Cl)c1CC1CC1`: “acute hepatic failure incidence” 3.2% (phase I dose escalation; human patients; dose not given, treatment-related grade 3 or higher).
`CN1CC[C@@H](c2c(O)cc(O)c3c(=O)cc(-c4ccc(C(F)(F)F)cc4Cl)oc23)[C@@H]1CO`: “patients with adverse event” 0% (item: Neutropenia; B-cell malignancies; oral, 200 mg, intermittent dosing).
`O=C(c1ccc(F)c(F)c1Nc1ccc(I)cc1F)N1CC(O)([C@@H]2CCCCN2)C1` has an adverse events of 100% (patients aged sample A to sample B years; oral, dose not given).

For quick reference, copied from above:
`Cn1ncc(-c2nc(N[C@H]3CC[C@H](N)CC3)ncc2Cl)c1CC1CC1`: “acute hepatic failure incidence” 3.2% (phase I dose escalation; human patients; dose not given, treatment-related grade 3 or higher).
